Measurements gathered from unrelated publications.
Parts stem from different laboratories: compare values within a part only.

Block 1
Target: RNA binding protein fox-1 homolog 2, RRM domain, GST-SBP tag (RBFOX2, Homo sapiens, UniProt O43251-10, residues 100-194)
Technique: RNA Bind-n-Seq
Form: RNA
Matrix: in vitro
Concentration: 365 nM
Setting: natural RNA segment, single round, ends assumed
Baseline: no-protein control
Reading: higher = stronger binding
Construct (chain): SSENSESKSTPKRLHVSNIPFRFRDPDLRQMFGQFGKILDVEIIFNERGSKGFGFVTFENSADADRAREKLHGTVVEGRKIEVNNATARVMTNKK
`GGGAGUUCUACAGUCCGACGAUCAAGGGCUCAGAAAACAAGCUGUGACAAGCAGAAACCAUGUCUAGGGGUGUGCAGCCCUUGACCCAAAGCUUAAGCCUUGUGCUCCCAGGGGAGCCAGGAAGUGACGUGUGUGGAAUUCUCGGGUGCCAA` — result for “RBNS enrichment (R)”: 0.332.
`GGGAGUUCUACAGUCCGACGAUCUGAGUGAUUCCCCUCUCUCUGCUAUGCUGGAGACGGUUCCAGCCUGGAAAGCGGCCAAGUUCAUCUUCUCACUGUGAGUGGAAGCUGGAUCGGGCCCCCGUAGUCCUGGCUGGAAUUCUCGGGUGCCAA` — result for “RBNS enrichment (R)”: 0.255.
`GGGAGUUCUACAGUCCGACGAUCCAGCAUGCAUCACGGAUCAAUAGACUGUACUUAUUUUCCAAUAAAAUUUUCAAACUUUGUACUGUUAUCCUGAGAAUCUGUUCUUUGUCCAGUCCACAGCUUACCUGCACUGGAAUUCUCGGGUGCCAA`: “RBNS enrichment (R)” 76.6.
`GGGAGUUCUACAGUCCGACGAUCUCUCCAGGUGUACUGCACUUACCCUCAAUCCAGCCCCGGAGAAGCAAGUGAAAAGGGUGGGUCCCUCAUAGGCUAGAAUGUGCAGCUCUUUCUCCAGGUGGGAUGUAGCAUGGAAUUCUCGGGUGCCAA`: “RBNS enrichment (R)” 3.56.
For `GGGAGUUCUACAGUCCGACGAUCCUGUUUCAACAGGAAAGUAGAUGUUUUGUGCUCCUUUUUGGAUUUUAUCUUCUUGCACAUGUUUGUACAGAAAUCACCUUCAUCCUUGUGGUGCUUACACACACCCAGUUUGGAAUUCUCGGGUGCCAA`, “RBNS enrichment (R)” read 0.403.
`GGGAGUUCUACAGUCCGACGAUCAUGUAUUUCUUGUCUACUAAGGAUUGCCAAGCUUUGUUUUGAAUUUCUGUAUUGGUCUCUAGGUGUAGCCUUUACUUCCUUUACUGUUGGCGUGUUAUGCUCCCAGUUCCUGGAAUUCUCGGGUGCCAA` — result for “RBNS enrichment (R)”: 1.03.
`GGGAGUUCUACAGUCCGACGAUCAUAUAACACUUAUGUGCUGGGCUUUCUUUUAAAUGCUUUCCAAGUGUUAACUUGUUUAGUCCCCUUUACUCUGAGAUAGGUACUGUUACCCCAGUUUUACAAAUGGCUAAUGGAAUUCUCGGGUGCCAA`: “RBNS enrichment (R)” 0.26.
`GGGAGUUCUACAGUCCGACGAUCUAACUAUAAUAUAUAUGAAUAUAAAUUUAGCUAAUGUUUGUGAGAGUGGGGCCUGCACACGUGUUCCUGUCAGAGGCAAGGCUCACAUUCCUUGCCAGCACCUCUUUCUCUGGAAUUCUCGGGUGCCAA`: “RBNS enrichment (R)” 0.902.
`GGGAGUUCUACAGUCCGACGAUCUAUGUAAAAACUGUCUGCAAGGACCGUCUGGCUUCAUUUCCCUGAGCACUCCCUACAUGGUAGGUUGUACCAGAGACCUAUGACCCCUGCCUUGUGGUAAACAGCAGGUGUGGAAUUCUCGGGUGCCAA`: “RBNS enrichment (R)” 0.467.

Block 2
Target: Hepatocyte nuclear factor 3-alpha (Foxa1, Mus musculus, UniProt P35582, residues 1-468, full length assumed)
Technique: EMSA with sequencing
Form: double-stranded DNA, one strand shown
Matrix: in vitro
Concentration: 10 and 20 nM
Setting: whole designed probe, mean of two concentrations, ends assumed
Baseline: negative control set to 0
Reading: higher = stronger binding
Target sequence (chain): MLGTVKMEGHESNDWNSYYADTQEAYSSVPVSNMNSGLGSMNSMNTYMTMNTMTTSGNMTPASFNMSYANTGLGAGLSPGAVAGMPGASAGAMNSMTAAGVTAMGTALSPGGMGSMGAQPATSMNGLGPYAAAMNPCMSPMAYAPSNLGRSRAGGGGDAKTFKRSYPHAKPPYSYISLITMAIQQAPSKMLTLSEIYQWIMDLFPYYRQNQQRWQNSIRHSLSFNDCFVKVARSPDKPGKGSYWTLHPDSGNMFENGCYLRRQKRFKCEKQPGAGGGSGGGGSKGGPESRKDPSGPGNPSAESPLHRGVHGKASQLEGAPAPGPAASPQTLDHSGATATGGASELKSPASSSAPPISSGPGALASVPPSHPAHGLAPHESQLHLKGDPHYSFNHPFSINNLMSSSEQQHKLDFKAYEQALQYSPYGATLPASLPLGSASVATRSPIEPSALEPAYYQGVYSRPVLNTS
`GTGAGCGGTGCCCATTGATGGGGAACTCCAGAAGGTCATATAAGTGAAATCACACAGTAGCTAGCCTTTTGAATAAGGTTCCTTTCACTTAGCTTAGTGCATTTGAGATTCATCCACACTGTTGACTCATCCATGGTTTGTTCCTTTTTATTGCTGAGTAGTAGTTGATTGTATGGTTGTGCCACCATGCCCATTCATTCACCAGCTGAAGAATACTCGTTTCACTGGGATCGTGGGGAC`: “normalised bound fraction” 0.0363 ratio.
`GTGAGCGGTGCCCATTGATGGGGAACATAGAAATTAAACAGATATAAAACTAGTAAACTCAGATAAAACTAGCACATATGTGAGAGCAAATTCAGCAAAACAAACCTCTGAATTTCAAAGTAATCTTGTCCTTGAAGATGTGGAAACAGGGTCAAACTCCACCAATGTTCTGTGAGTCACAAAATTACTCTGAGATTCAGGGGTCAAGGGGGAAAGTTATTTCACTGGGATCGTGGGGAC`: “normalised bound fraction” 0.000893 ratio.
For `GTGAGCGGTGCCCATTGATGGGGAACGCCAAGCTGTGCTCATGATCACATGGGAGGGAGGTGACAATGGAAAGCAGATAAATGAACTATTGCAGCCAATTGATGAGCACAGAGAGAGGCTGTTTACTGAATGTAGGCAGATAGGACCTTACACAATATCCCAGAGATCAACTTACCCCAGCACGGCTTGGACTTAGCAGAGAGGACCAATGGACCTGAATTTCACTGGGATCGTGGGGAC`, “normalised bound fraction” read 0.012 ratio.
For `GTGAGCGGTGCCCATTGATGGGGAACATGTGGGAACTAATTGAGGACCATGTTTACAATGCGTACAAATCATAAATCAATTAGTTCATATTGATTTACAAGGAAGAAACAAAAAGTATTTGTTTACATTGATACTGTCCATGTAAACTTTTTTCAATTCAAAAGAAACACATAGTTCTGTCATAAAGTAGATTTTCTATCCCTTTTATTTTCTGAGCTTTTTCACTGGGATCGTGGGGAC`, “normalised bound fraction” read 0.497 ratio.

Block 3
Target: Ras GTPase-activating protein-binding protein 1, RRM domain (G3BP1, Homo sapiens, UniProt Q13283)
Chain of UniProt Q13283 (whole entry, looked up): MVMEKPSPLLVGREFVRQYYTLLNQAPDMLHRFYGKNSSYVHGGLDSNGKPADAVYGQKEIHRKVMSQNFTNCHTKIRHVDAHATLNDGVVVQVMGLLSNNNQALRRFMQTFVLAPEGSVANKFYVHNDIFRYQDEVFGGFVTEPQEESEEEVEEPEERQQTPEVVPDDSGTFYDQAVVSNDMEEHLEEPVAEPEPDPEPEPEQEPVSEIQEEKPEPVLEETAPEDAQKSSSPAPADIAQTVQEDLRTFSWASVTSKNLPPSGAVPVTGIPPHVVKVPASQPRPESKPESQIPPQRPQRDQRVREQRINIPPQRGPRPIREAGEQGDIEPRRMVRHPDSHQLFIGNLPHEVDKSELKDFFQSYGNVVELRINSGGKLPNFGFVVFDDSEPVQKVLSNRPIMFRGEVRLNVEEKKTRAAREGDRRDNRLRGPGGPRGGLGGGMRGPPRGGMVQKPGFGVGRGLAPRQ
Technique: RNA Bind-n-Seq
Form: RNA
Matrix: in vitro
Concentration: 1 µM
Setting: whole 134-nt RNA, ends assumed
With: 150 mM KCl
Baseline: input library
Reading: higher = stronger binding
For `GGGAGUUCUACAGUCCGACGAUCAAGUCCUGUGCUACACAUCGUAUGUACCGAAUCGGCCCCGGGCCCCGGGCCCCGGGAAAGUAUUAUGUUACGCCGUUCGGAUCUGCACUUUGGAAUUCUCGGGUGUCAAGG`, the log2 enrichment was -0.815.
`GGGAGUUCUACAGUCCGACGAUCGUCCUGUGCUACACAUCGUAUGUACCGAAUCGGGUGGGAAAAAAAGGGUUUUUUUGGGAAAGUAUUAUGUUACGCCGUUCGGAUCUGCACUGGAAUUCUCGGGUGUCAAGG` gave a log2 enrichment of 0.349.
For `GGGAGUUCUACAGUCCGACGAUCCUGUGCUACACAUCGUAUGUACCGAAUCGGGUUUUUUUGGGUUUUUUUGGGUUUUUUUGGGAAAGUAUUAUGUUACGCCGUUCGGAUCUGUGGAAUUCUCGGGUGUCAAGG`, the log2 enrichment was -0.143.
`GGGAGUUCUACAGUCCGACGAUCUCCUCAAGUCCUGUGCUACACAUCGUAUGUACCGAAUCGGAGGGAGGGAGGGAAAGUAUUAUGUUACGCCGUUCGGAUCUGCACUUCCAGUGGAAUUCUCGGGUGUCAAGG` gave a log2 enrichment of 0.601.
The log2 enrichment of `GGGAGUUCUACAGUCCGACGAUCGAGGGAGUUUGCAGAUACCUCAGGAUUCGUGACAAUGCCUUUAAAGAUCCAGGAGAGAUGUUCAGCUACUAGGAACUGCUAGCAAGUAUAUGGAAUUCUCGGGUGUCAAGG` is reported as -0.0699.
With `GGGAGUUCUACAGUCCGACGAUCUUAUCUGUGGACUUCACCCAAAAGGAGUGGCAGCUACUGGAUCCCUCUCAGAAGAAUUUAUACAAGGAUGUGAUGUUGGAGAACUAUAGCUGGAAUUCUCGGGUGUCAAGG` the log2 enrichment was -0.0405.
`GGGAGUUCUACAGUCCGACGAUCUGUCCUGUGCUUUCACAUUCUUUCUGCAUGGAGAAAGUAAUGUAUGCACAAGUGUGGAGAUUGCCCAGCACCAGCCAAUUUAUUUGAUCAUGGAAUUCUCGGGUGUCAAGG` gave a log2 enrichment of -0.05.
`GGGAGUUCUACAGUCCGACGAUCCCUGUGCUACACAUCGUAUGUACCGAAUCGGGGUUUUUUUGGUUUUUUUGGUUUUUUUGGGAAAGUAUUAUGUUACGCCGUUCGGAUCUGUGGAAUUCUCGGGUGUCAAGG` has a log2 enrichment of -0.305.
For `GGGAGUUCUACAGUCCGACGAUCUGGGAGAUGGAUUUUGUUUAUUUUUUUAGCUCAUUUCCAGGGGUGGGAAUUUUUUUUUAAUAUGUGUCAUGAAUAAAGUUGUUUUUGAAAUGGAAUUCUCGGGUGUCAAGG`, the log2 enrichment was 1.81.
For `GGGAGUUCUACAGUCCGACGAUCUCAAGUCCUGUGCUACACAUCGUAUGUACCGAAUCGGGCCGGGCCGGGGCCGGGAAAGUAUUAUGUUACGCCGUUCGGAUCUGCACUUCCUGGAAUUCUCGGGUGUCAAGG`, the log2 enrichment was -0.662.

Block 4
Target: Interferon regulatory factor 7, full length, phosphomimetic (IRF7, Homo sapiens, UniProt Q92985, residues 1-503, S471D/S472D/S475D/S476D/S477D/S483D/S484D/S487D)
Technique: protein-binding microarray
Form: double-stranded DNA, one strand shown
Matrix: in vitro
Concentration: 2200 nM top
Setting: 60-bp whole probe
With: salmon DNA 0.4 mg/ml
Baseline: random background probes
Reading: higher = stronger binding
Constant ends, left off below: GCCTAGCAC … GTCTTGATTCGCTTGACGCTGCTG
Target sequence (chain): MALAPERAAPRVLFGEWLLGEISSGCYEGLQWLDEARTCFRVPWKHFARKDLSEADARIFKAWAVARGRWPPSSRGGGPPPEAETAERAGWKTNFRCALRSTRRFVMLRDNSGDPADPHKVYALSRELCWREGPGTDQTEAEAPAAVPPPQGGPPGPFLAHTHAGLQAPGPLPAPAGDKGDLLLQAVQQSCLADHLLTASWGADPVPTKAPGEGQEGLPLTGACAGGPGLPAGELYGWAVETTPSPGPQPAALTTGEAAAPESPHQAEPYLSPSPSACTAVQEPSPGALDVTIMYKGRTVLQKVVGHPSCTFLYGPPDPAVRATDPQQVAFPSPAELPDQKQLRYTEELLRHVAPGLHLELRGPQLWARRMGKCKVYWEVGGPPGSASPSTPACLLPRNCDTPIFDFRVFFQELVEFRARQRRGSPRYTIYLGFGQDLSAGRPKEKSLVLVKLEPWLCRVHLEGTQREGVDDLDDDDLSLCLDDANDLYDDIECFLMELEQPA
`GACGGTTCCGGTTACGGGACGTGCTAG` — result for “fitted relative affinity”: 1.07 z-score.
Under “fitted relative affinity”, `AACGGTATCCTACTGCTGACGTGCTAG` is recorded as 0.987 z-score.
`TTAGAACTGGGGTTTCGATAAGTGCTA`: “fitted relative affinity” 0.756 z-score.
For `AACGGTTTCGGTATCGGGACGTGCTAG`, “fitted relative affinity” read 8.24 z-score.
`TTTGGTTTCCTACTGCTTTAGTGCTAG`: “fitted relative affinity” 2.74 z-score.
`GACGATTTCAGTTTCGGGACGTGCTAG`: “fitted relative affinity” 5.87 z-score.
`GAGGATATCAGACTGGAGACGTGCTAG`: “fitted relative affinity” -0.288 z-score.
`TTTTTTTTTTTTTTTACTTCGTGCTAG`: “fitted relative affinity” 2.38 z-score.
For `TTAGGACTGGGGTATCCGTTAGTGCTA`, “fitted relative affinity” read -0.6 z-score.
`TTAGGTTTCGGTTTCTGTTAGTGCTAG` — result for “fitted relative affinity”: 14.3 z-score.
`TCATATATATTGTTAGTACTGTGCTAG`: “fitted relative affinity” 0.761 z-score.
Under “fitted relative affinity”, `TTAGGTTTCGGATATCGGTTAGTGCTA` is recorded as 3.65 z-score.
`GACGATGTCGGGACTGGAGACGTGCTA`: “fitted relative affinity” -0.524 z-score.
Under “fitted relative affinity”, `GACGATTTCAGTTCCAAGACGTGCTAG` is recorded as 1.53 z-score.
`TCACCTTGGAAGTATGACACTGTGCTA`: “fitted relative affinity” 0.641 z-score.
Under “fitted relative affinity”, `GAACCTTGGGCTCTAGGTTCGTGCTAG` is recorded as 0.805 z-score.
Under “fitted relative affinity”, `TTAGGTTCCCTTTTCCCTTAGTGCTAG` is recorded as 3.16 z-score.
Under “fitted relative affinity”, `ATTTGTCCCTATTTAAGAGAGTGCTAG` is recorded as 1.48 z-score.

Excerpt of the above (block 4):
`GACGATTTCAGTTTCGGGACGTGCTAG`: “fitted relative affinity” 5.87 z-score.
`GAGGATATCAGACTGGAGACGTGCTAG`: “fitted relative affinity” -0.288 z-score.
`TTTTTTTTTTTTTTTACTTCGTGCTAG`: “fitted relative affinity” 2.38 z-score.
For `TTAGGACTGGGGTATCCGTTAGTGCTA`, “fitted relative affinity” read -0.6 z-score.
`TTAGGTTTCGGTTTCTGTTAGTGCTAG` — result for “fitted relative affinity”: 14.3 z-score.
`TCATATATATTGTTAGTACTGTGCTAG`: “fitted relative affinity” 0.761 z-score.
